Measured values from different studies.
Compare with care: the assays were run in different laboratories.

Structure (SMILES) = O=C(O)CCC(=O)O.[2H]C([2H])([2H])Oc1cc(C)c2[nH]ccc2c1CN1CC[C@@H](C2CC2)C[C@H]1c1ccc(C(=O)O)cc1; system = human, plasma; setting = 100 mg twice daily, day 10, multiple ascending dose, geometric mean; AUC(0-tau) = 46.1 µg·h/mL
Structure (SMILES) = Cc1noc(C)c1-c1cc(C(O)(c2ccccn2)c2ccccn2)c2nc(C3CC3)[nH]c2c1; system = human, fasted, plasma; setting = oral, 9 mg once daily, cycle 1 day 8; AUC(0-tau) = 7.22 µg·h/mL
Structure (SMILES) = Cc1ncnc2c1ccn2[C@@H]1C[C@H](Oc2cc(C(F)F)c(F)c3c2CNCC3)[C@@H](O)[C@H]1O; system = human; setting = 4 mg twice daily, multiple dose, geometric mean; AUC(0-tau) = 0.437 µg·h/mL
Structure (SMILES) = CC(C)NC(=O)COc1cccc(-c2nc(Nc3ccc4[nH]ncc4c3)c3ccccc3n2)c1; system = human male, plasma; setting = oral, 200 mg, day 5, fed, alone, geometric mean; AUC(0-tau) = 8.49 µg·h/mL
Structure (SMILES) = CCOc1c([C@H](C)n2nc(C)c3c(N)ncnc32)cc(Cl)c(F)c1[C@@H]1CNC(=O)C1; system = human, indolent lymphoma, plasma; setting = oral, 20 mg, day 15, geometric mean; AUC(0-tau) = 12.2 µM·h
Structure (SMILES) = CCN1CCN(Cc2ccc(Nc3ncc(F)c(-c4cc(F)c5nc6n(c5c4)[C@H](C)CCC6)n3)nc2)CC1; system = human, plasma; setting = 50 mg multiple dosing, mean; AUC(0-tau) = 1.71 µg·h/mL
Structure (SMILES) = CCCCOCCOc1ccc(-c2ccc3c(c2)/C=C(/C(=O)Nc2ccc([S@@+]([O-])Cc4cncn4CCC)cc2)CCCN3CC(C)C)cc1; system = human, moderate impairment matched controls, plasma; setting = oral, 150 mg, day 1, geometric mean; AUC(0-tau) = 3.98 µg·h/mL
Structure (SMILES) = COC[C@@H](c1ccc(C(F)(F)F)cc1)N1CCN(C2(C)CCN(C(=O)c3c(C)ncnc3C)CC2)C[C@@H]1C; system = human; setting = oral, 5 mg once daily, steady state, population PK, together with: ritonavir; AUC(0-tau) = 1.17 µg·h/mL
